Experimental data gathered from unrelated publications.
Numbered parts are unrelated; each lists some results of a single study.

Study 1
Target: Ras GTPase-activating protein-binding protein 1, C-terminal RGG region (G3BP1, Homo sapiens, UniProt Q13283)
Sequence of UniProt Q13283 (whole entry, looked up): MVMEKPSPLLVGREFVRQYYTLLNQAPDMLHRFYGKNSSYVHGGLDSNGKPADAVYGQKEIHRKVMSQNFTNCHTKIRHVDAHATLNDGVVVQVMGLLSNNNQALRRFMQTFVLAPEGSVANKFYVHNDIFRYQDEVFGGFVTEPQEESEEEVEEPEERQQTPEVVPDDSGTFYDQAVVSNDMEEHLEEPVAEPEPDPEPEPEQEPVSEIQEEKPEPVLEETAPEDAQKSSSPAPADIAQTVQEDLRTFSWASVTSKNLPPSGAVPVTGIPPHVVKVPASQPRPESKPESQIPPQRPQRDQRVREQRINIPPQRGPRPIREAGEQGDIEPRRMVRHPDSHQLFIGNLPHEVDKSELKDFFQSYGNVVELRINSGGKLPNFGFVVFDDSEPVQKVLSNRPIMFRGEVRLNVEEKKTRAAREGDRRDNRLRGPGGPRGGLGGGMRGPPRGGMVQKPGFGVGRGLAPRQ
Technique: RNA Bind-n-Seq
Molecule type: RNA
Sample: in vitro
Concentration: 1 µM
Notes: whole 134-nt RNA, ends assumed
With: 150 mM KCl
Baseline: input library
Reading: higher = stronger binding
Endpoint: log2 enrichment
Constant ends, left off below: GGGAGUUCUACAGUCCGACGAUC … UGGAAUUCUCGGGUGUCAAGG
CUGUGCUACACAUCGUAUGUACCGAAUCGGGGCCCCCCCGGGCCCCCCCGGGCCCCCCCGGGAAAGUAUUAUGUUACGCCGUUCGGAUCU: -2.32
GCAGGAAGUAAAAACAAAUGGAAAUGCUUCGGAUGGUGGCAGGGGUGGGGGUUGCUAAGGAAAGGGUGGGAUGGGAGUGGGUAAAGAGUU: 1.79
AAGUCCUGUGCUACACAUCGUAUGUACCGAAUCGGGGAAAAGGAAAAGGAAAAGGGAAAGUAUUAUGUUACGCCGUUCGGAUCUGCACUU: -1.77
UGGGAGGUGGAUUUUGUUUAUUUCUUUAGCUCAUUUCCAGGGGUGGGAAUUUUUUUUUAAUAUGUGUCAUGAAUAAAGUUGUUUUUGAAA: 3.19
UACUGCUCCUCAGCAGGAAGCGGAUGCUGAGGUGAACACAGAAACACUAAAUAAGUCCUCCCAGGGGAGCUCCUCGAGCACACAAUCAGC: -0.326
UCAAGUCCUGUGCUACACAUCGUAUGUACCGAAUCGGUUUUGGUUUUGGUUUUGGAAAGUAUUAUGUUACGCCGUUCGGAUCUGCACUUC: -1.45
UAACUUUAGAGGAGGAUCUGAUGGGUAUGGCAGUGGACGUGGAUUUGGGGAUGGCUAUAAUGGGUAUGGAGGAGGACCUGGAGGUGGCAA: 1.32
UUUCAGGGCGCCCUGCGUCCGGCAGAGGAGGCGAGCAUCCCGCUCAGGUGAUGAGGAACCCCUCGCGCACCCAGCGCAGAAGGCUGCUGC: -1.95

Study 2
Target: RING finger protein unkempt homolog, zinc fingers 1-6, GST-SBP tag (UNK, Homo sapiens, UniProt Q9C0B0, residues 30-357)
Technique: RNA Bind-n-Seq
Molecule type: RNA
Sample: in vitro
Concentration: not given
Notes: RNA with constant flanks, human and mouse sites, ends assumed
Baseline: input RNA pool
Reading: higher = stronger binding
Endpoint: bound/input enrichment
Constant ends, left off below: GGGAGUUCUACAGUCCGACGAUC … CAACAGAGGAUUGAGCAUCA
Construct (chain): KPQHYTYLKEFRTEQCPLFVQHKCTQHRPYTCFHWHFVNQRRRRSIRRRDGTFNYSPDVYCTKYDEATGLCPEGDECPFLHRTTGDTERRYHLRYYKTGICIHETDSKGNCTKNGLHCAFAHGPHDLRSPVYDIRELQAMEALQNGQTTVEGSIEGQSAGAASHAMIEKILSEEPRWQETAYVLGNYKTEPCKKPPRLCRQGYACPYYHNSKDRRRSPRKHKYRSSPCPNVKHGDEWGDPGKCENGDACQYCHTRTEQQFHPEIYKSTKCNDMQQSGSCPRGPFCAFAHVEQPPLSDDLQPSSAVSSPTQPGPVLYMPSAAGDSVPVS
UAUGAAUUUGACAAGUUUUGGUUUGAAGAAGAACCAGAAAGCAUUAUGUAUUUCAAUUUGUAUAGAGAGAAGUUUCAUGAAAAGAUUAAAGGACUUUUACUGGAUUGUAAUGUAGCACUU: 0.739 ratio
UUAGGAGAAGAUUGCAGAUGAUAGAAUGUCCUAUCCGCCCAUCCCCUGCUUUGCAGCUCAAAUAGUUACUCUAAGCUUUGGGUAUUCUACAAAGUUUUCUUAAUUCUUGGAGCAGAGUAU: 0.108 ratio
GUAGCAGAUGAGCUGCAGAAAAUGCUUCUGGUAGAUGAAUUGAGAGAUGCAGUGCUGCUACUUUUUGCAAACAAACAGGAUUUGCCAAAUGCUAUGGCCAUCAGUGAAAUGACAGAUAAA: 0.299 ratio
CAGGCCACGGAGAGCGAGGCCGGUGACAUGGACCUGAGUGGACUGCCAGAGACGGCGGUUGACUCUGAGGAUGACGAUGAUGAGGAAGACAUCGAGAGAGCAUCAGACCCUCUGAUGAGC: 0.0557 ratio
AUGUGAAAAUGUAUAAAUAUCAUCCAAAAGGCUUUCUGCCCUAUAUUUUUAAAAUACAGAAGUUAUAUUUGAAGUAGUCCUGGCCCUAGUUCUAUAGGGCUUGGCUAUUUAAUAUUUUUA: 0.309 ratio
CACACAAUGUUUUUACAAGAUUUUAGACCAUUUCUAAGUAGCAAUCCACUGGACCAAGAUAAUAGAGCCAAUGAGAGAGGUCACCAAACUCACACUGACUUUUGGGGACCAAGUCGGCCU: 1.38 ratio
UGGUCUUCAGAGAGCAACUAUCCUCCCCAAUACUUGAUUCUGAAGCUUGAAAGGCCUGCUAUCGUUCAGAAUAUUACAUUUGGAAAAUAUGAGAAAACUCAUGUCUGCAAUUUGAAGAAA: 0.138 ratio
AUGCUUGGUUGUAAGACACCAAUAGGAAAACCAGCCACUGCAAAACUUUAAUAAUCAACAAAUAGUUAUGGAAAAUUCGGUCACGUAAUUACUCUCAUCGAAGGACUCAUUACAACAAAC: 5.14 ratio

Study 3
Target: Histone acetyltransferase KAT6A, winged helix 1, GST fusion (KAT6A, Homo sapiens, UniProt Q92794, residues 1-85)
Technique: protein binding microarray
Molecule type: double-stranded DNA, one strand shown
Sample: in vitro
Concentration: not given
Notes: 8-mer, flanks averaged, mean of 2 arrays, mostly near background
Baseline: not given
Reading: higher = stronger binding
Endpoint: E-score
Residues (chain): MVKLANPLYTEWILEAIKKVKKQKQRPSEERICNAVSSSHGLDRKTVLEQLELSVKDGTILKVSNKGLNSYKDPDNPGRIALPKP
AAGCTCGT: -0.242
ACTCTGAA: -0.143
GCGCGGCC: 0.454
GGTAGTCA: 0.0165
GCAGGGGC: 0.0677
AGCCGGCG: 0.45
CGCTCACA: 0.243
ATAACACA: -0.0965
CAGGACTC: -0.147
CGCAGGAG: -0.0368
CTGGACTA: -0.236
GCTCCTCA: -0.00539
AGGGAATG: -0.104
GCTTGACC: 0.0789
CTGCGTCC: 0.0796

Further values, each from its own experiment
PhoQ, residues 284 288 289 292 302 303 SMMNNA — fold induction (PhoP, residues 12 14 15 18 19 NQFFI (Escherichia coli, UniProt P23836); Sort-seq, refers to: YFP reporter; E. coli; PhoQ-PhoP variant library, with: 10 µM Mg2+; baseline: high Mg2+ state, higher = stronger signaling): 17.3

A few entries again (study 3):
ATAACACA: -0.0965
GCAGGGGC: 0.0677
CGCTCACA: 0.243
CGCAGGAG: -0.0368
GCTCCTCA: -0.00539
